# Measured values collected from several papers.
# Protocols differ between the studies behind these lines. Values joined by “and” are separate records of one study, mostly repeats; a detail may differ. ± marks the error that the study gave.
# SRC SH3-SH2-kinase domain: Proto-oncogene tyrosine-protein kinase Src, SH3-SH2-kinase domain (SRC, Gallus gallus, UniProt P00523)
# Chain of UniProt Q9NR56 (whole entry, looked up): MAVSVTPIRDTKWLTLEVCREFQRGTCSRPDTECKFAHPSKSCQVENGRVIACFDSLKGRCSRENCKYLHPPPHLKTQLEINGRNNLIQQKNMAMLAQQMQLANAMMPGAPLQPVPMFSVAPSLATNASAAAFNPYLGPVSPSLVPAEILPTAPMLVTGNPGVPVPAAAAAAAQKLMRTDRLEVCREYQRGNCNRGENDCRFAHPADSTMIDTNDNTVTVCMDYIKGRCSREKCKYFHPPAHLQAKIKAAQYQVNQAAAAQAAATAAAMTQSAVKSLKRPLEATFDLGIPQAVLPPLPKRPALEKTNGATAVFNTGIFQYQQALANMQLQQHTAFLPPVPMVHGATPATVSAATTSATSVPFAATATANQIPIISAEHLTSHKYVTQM
# Chain of UniProt Q92835 (whole entry, looked up): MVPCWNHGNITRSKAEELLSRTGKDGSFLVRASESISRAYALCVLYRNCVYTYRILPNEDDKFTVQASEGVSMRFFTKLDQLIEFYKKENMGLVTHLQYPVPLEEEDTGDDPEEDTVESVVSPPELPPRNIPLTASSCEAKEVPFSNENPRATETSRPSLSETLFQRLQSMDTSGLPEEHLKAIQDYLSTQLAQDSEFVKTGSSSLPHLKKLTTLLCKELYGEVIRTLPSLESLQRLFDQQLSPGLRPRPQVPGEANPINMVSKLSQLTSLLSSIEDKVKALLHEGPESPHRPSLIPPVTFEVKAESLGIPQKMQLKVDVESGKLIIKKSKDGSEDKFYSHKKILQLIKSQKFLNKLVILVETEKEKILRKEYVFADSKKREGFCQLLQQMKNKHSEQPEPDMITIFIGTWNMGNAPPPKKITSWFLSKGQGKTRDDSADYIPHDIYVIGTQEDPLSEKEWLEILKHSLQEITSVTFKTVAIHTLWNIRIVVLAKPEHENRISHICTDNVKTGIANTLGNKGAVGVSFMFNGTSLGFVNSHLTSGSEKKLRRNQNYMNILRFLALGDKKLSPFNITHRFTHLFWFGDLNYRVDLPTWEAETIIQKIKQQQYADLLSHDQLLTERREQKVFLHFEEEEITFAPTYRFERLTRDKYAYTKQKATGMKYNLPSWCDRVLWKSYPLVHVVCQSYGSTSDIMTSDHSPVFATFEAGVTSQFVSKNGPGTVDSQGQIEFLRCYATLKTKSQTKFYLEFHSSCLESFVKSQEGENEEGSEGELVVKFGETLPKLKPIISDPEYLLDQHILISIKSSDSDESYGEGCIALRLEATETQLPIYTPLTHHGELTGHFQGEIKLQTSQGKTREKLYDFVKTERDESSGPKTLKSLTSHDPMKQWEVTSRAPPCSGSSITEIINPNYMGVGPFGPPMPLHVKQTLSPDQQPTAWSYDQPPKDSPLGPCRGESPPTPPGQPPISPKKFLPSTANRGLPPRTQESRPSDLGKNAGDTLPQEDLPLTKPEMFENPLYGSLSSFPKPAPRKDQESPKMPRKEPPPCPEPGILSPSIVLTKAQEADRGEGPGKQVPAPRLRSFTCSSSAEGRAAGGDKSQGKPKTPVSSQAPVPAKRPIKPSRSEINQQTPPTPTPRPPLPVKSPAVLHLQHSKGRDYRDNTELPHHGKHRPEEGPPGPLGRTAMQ
# Chain of UniProt Q12884 (whole entry, looked up): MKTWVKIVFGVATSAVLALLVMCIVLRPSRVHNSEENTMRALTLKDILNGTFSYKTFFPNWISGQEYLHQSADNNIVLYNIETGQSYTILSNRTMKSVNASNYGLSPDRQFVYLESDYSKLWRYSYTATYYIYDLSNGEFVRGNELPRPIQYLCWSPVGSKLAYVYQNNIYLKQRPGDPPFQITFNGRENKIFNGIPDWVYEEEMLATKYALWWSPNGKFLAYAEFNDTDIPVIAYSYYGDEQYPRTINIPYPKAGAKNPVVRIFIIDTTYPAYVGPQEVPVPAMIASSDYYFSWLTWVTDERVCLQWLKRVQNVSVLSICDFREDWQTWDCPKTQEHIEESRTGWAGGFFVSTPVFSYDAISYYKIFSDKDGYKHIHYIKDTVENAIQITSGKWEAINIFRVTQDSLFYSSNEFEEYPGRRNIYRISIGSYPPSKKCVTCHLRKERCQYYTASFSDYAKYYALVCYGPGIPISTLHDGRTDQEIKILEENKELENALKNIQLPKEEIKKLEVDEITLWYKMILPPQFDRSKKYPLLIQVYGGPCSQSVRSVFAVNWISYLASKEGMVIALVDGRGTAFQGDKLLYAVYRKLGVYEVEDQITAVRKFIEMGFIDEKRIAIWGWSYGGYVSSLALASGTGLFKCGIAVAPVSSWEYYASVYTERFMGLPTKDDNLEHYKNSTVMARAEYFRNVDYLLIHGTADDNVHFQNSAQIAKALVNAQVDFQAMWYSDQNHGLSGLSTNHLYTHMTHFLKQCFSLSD
# Chain of UniProt Q16644 (whole entry, looked up): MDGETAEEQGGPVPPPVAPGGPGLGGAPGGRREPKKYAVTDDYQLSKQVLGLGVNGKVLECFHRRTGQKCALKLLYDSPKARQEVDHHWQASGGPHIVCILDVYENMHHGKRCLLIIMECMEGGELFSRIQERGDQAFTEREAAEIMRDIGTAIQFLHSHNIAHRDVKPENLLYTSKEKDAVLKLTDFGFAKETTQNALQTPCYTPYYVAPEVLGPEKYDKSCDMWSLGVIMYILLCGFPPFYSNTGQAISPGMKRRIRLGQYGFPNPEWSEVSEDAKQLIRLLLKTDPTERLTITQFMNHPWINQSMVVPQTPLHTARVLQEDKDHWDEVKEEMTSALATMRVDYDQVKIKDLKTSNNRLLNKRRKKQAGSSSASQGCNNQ
# Chain of UniProt P51684 (whole entry, looked up): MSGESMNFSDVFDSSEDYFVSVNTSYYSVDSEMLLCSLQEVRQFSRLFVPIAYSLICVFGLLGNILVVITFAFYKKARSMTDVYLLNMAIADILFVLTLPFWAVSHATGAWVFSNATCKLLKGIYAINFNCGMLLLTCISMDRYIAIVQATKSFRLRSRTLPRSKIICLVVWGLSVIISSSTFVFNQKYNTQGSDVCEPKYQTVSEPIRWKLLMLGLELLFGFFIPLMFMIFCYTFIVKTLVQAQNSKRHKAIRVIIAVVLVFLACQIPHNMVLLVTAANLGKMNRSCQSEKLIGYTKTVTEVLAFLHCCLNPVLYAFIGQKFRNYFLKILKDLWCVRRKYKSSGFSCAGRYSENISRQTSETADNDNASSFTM
# Chain of UniProt O88693 (whole entry, looked up): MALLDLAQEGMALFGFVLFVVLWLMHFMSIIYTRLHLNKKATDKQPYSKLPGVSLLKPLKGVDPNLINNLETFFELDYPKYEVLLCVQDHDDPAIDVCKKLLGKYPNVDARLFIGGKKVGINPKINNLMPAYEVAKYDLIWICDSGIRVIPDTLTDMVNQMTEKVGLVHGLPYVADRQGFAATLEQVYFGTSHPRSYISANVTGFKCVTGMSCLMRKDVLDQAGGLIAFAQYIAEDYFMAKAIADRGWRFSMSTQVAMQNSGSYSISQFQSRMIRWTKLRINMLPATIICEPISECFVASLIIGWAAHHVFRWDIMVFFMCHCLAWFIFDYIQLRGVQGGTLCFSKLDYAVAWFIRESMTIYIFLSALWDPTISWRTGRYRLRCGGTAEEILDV
# Chain of UniProt P43351 (whole entry, looked up): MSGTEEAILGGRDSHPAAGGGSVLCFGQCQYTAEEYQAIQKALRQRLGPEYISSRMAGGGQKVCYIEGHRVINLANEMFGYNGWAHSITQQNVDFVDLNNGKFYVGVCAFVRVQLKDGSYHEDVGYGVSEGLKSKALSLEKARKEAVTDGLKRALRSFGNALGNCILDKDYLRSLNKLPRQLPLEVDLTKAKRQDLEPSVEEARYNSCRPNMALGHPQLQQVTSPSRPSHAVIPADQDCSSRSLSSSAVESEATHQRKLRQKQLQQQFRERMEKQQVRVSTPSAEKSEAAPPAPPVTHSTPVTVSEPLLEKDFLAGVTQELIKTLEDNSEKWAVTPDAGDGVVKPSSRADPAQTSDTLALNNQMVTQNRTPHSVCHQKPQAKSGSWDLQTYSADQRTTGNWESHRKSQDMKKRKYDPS
# Chain of UniProt O08529 (whole entry, looked up): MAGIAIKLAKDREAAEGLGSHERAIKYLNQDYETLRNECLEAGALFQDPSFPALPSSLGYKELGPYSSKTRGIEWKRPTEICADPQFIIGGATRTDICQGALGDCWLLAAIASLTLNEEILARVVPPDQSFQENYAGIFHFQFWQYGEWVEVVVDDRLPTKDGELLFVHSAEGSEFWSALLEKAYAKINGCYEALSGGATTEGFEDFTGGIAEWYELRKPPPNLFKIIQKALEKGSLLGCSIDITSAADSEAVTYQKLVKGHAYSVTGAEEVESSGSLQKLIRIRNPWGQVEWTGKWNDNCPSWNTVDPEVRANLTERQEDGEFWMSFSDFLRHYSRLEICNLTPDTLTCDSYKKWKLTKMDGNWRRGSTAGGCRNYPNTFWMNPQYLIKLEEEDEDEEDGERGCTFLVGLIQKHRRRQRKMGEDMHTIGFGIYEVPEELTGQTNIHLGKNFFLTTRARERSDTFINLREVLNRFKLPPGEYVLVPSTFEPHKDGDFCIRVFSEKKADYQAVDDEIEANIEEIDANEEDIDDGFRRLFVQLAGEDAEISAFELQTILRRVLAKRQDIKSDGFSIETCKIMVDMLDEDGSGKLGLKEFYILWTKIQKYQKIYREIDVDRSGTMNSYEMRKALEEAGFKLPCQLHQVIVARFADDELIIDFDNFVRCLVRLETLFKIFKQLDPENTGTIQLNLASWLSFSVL
# Chain of UniProt Q00534 (whole entry, looked up): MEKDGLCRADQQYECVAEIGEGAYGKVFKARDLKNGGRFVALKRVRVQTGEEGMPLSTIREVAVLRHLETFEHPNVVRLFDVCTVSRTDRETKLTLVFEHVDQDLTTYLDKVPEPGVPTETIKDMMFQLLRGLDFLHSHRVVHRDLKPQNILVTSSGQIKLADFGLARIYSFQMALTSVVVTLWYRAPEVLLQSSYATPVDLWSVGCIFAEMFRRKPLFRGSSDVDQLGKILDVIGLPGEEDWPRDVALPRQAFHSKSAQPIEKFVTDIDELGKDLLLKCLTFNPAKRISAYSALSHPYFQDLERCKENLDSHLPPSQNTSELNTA
SMILES,target,test,system,setting,IC50
O=C1CO[C@H](CNC(=O)C2(c3ccc(Cl)cc3)CC2)CN1C1Cc2ccccc2C1,"CCR6 (Homo sapiens, UniProt P51684)",cell migration,,,158 nM
CC(=O)N[C@@H](CCCNC(=N)N)C(=O)NCCOCCOCC(=O)N[C@H](C)C(=O)N1CCC[C@H]1B(O)O,"FAP (Homo sapiens, UniProt Q12884)","enzyme activity, inhibitor, western blot",,,~90 nM
CCNC1=CC(=O)c2cc3c(cc2C1=O)CCCC3(C)C,"DNA topoisomerase IB (Leishmania donovani, UniProt A0A3Q8IHS4+Q8WQM6)","DNA relaxation activity, inhibitor",,together with: supercoiled plasmid DNA,> 100000 nM
COc1ccc(C(=O)/C=C/c2ccc(O)cc2)c(O)c1CC=C(C)C,"Dopamine beta-hydroxylase (Homo sapiens, UniProt P09172)","enzyme activity, inhibitor",,together with: tyramine,12000 nM
C=CC(=O)c1nc(C#N)ccc1N1CCCOCC1,"Phosphatidylinositol 3,4,5-trisphosphate 5-phosphatase 1, Ptase-C2 domains (INPP5D, Homo sapiens, UniProt Q92835)","enzyme activity, inhibitor",,,108000 nM
COc1ccc(C(=O)Nc2n[nH]c3ccc(NC(=O)C(CCN)c4cccc(Cl)c4)cc23)cc1 (centres unmarked),"Tyrosine-protein kinase HCK, SH3 (HCK, Homo sapiens, UniProt P08631, K245P/K248P)","enzyme activity, inhibitor",,,400 nM
O=C(Cn1nc(C(F)(F)F)c2c1CCCC2)NCCc1ccccc1,"Trypanothione synthetase (Trypanosoma brucei, UniProt Q586P2)","enzyme activity, inhibitor",,,5600 nM
COc1ccc2nc3cc(Cl)ccc3c(NCCCCc3c(N)nc(N)nc3N)c2c1,"Muscleblind-like protein 1, with (CCUG)6 RNA (Homo sapiens, UniProt Q9NR56)","MBNL1-RNA binding, gel mobility shift",,"no tRNA, together with: 0.1 nM (CCUG)6 RNA, 350 nM MBNL1",59000 ± 5000 nM
CC(=O)Nc1ccc(S(=O)(=O)NCc2nc(-c3ccccc3)no2)cc1,"Trypanothione synthetase (Trypanosoma brucei, UniProt Q586P2)","enzyme activity, inhibitor",,,5900 nM
COC(=O)C[C@H](NC(=O)[C@H](C)NC(=O)[C@@H](NC(=O)OCc1ccccc1)C(C)C)C(=O)CF,"Caspase-8 (CASP8, Homo sapiens, UniProt Q14790)","enzyme activity, inhibitor, fluorescence",,,2 nM
CC1CCC(C(C)C)C(OCC(=O)NC(C)c2ccc(-n3cncn3)cc2)C1 (centres unmarked),"Trypanothione synthetase (Trypanosoma brucei brucei, UniProt Q586P2)","enzyme activity, BIOMOL Green phosphate release",,1 h preincubation,28000 nM and 28200 nM
CCOC(=O)N1CCC(Oc2nc3c(c(=O)n(C)c(=O)n3C)n2Cc2cccc(C)c2)CC1,"ALDH1B1 (Homo sapiens, UniProt P30837)",,,,> 57000 nM
CN1C[C@H](c2cccc(C(F)(F)F)c2)[C@@H](C(=O)Nc2ccccc2F)C1=O,"DHODH (Homo sapiens, UniProt Q02127)","enzyme activity, inhibitor, absorbance",,,380 nM
CCCCCCCCCC(=O)OCCN1CCN(c2cc(Nc3ncc(C(=O)Nc4c(C)cccc4Cl)s3)nc(C)n2)CC1,"ABL1 (Homo sapiens, UniProt P00519)",,,,220 nM
COc1cc(Cc2c[nH]c3ncc(C(F)(F)F)cc23)cc(OC)c1,"FGFR3 (Homo sapiens, UniProt P22607)","enzyme activity, inhibitor",,,25 nM
O=C(O)c1cc(S(=O)(=O)Nc2c(F)cccc2F)ccc1O,"RAD52 (Homo sapiens, UniProt P43351)","DNA binding, inhibitor, FRET",,"25 °C, together with: Cy3-dT30-Cy5 1 nM",23100 ± 1500 nM
N#Cc1c(-c2ccc(Cl)cc2)cc(-c2cccs2)nc1SCc1ccc(C(=O)O)cc1,"KAT2A (Homo sapiens, UniProt Q92830)","enzyme activity, inhibitor, radiometric",,,3100 nM
OC[C@@H]1[C@@H](O)[C@H](O)[C@@H](O)CN1CCCCCOCC1CCCO1 (some centres unmarked),"Ugcg (Mus musculus, UniProt O88693)","enzyme activity in cells, inhibitor, fluorescence",,,> 50000 nM
CN1C(=O)/C=C/C(=O)N[C@H](C(=O)O)CCCNC(=O)[C@H](Cc2ccc([N+](=O)[O-])cc2)NC(=O)[C@H](Cc2ccc(F)cc2)NC(=O)[C@@H]1CC1CCCCC1,SRC SH3-SH2-kinase domain,"enzyme activity, inhibitor, Z'-LYTE FRET",,"Src residues 83-533, together with: 50 µM ATP",570 ± 20 nM
O=C1C(=NN=c2[nH]ccs2)c2cc(Cl)ccc2N1CCn1ncc2c(=O)[nH]cnc21,"Cyclin-dependent kinase 6, with cyclin D3 (CDK6, Homo sapiens, UniProt Q00534)","enzyme activity, inhibitor, ADP detection",,,123 nM
Cc1ccccc1-c1cc(N2CCN(CCCN3C(=O)C=CC3=O)CC2)ccc1N(C)C(=O)C(C)(C)c1cc(C(F)(F)F)cc(C(F)(F)F)c1,"TACR1 (Homo sapiens, UniProt P25103)","IP1 accumulation, antagonist, HTRF",,"90 min preincubation, together with: substance P 10 nM",209 nM
Cc1ccc2nc(-c3ccc4nc(-c5ccc6nc(-c7ccc(N)cc7)sc6c5)sc4c3)sc2c1S(=O)(=O)O,"Genome polyprotein, NS3 helicase domain (Hepatitis C virus genotype 1b, UniProt Q9WMX2)","DNA unwinding, inhibitor, molecular beacon helicase",,together with: DNA substrate,~1000 nM
COc1ccc(-n2c(=O)c(C(=O)C3C(=O)CCCC3=O)nc3c(Cl)cccc32)cc1,"4-hydroxyphenylpyruvate dioxygenase (Oryza sativa, UniProt Q6H4V1)","enzyme activity, inhibitor",,,27.2 ± 1.5 nM
O=C1/C=C\C(=O)N[C@@H](CC2CCCCC2)C(=O)N[C@@H](Cc2ccccc2)C(=O)N[C@@H](CCCNC(=O)c2cnccn2)C(=O)NCC[C@@H](C(=O)O)N1,"SRC (Gallus gallus, UniProt P00523)","enzyme activity, inhibitor",kinase domain,together with: 250 µM ATP,130 nM
CC1=CC(C)=[N+]2C1=C(CCCC(=O)NCCCCCC(=O)NCCCC[C@H](NC(=O)N[C@@H](CCC(=O)O)C(=O)O)C(=O)O)c1c(C)cc(C)n1[B-]2(F)F,"FOLH1 (Homo sapiens, UniProt Q04609)","ligand displacement in cells, radioligand",,,21.5 nM
Cc1cc(N2CCN(C(=O)CN3CCN(c4ccccc4)CC3)CC2)n2ncnc2n1,"TOP2A (Homo sapiens, UniProt P11388)","enzyme activity, inhibitor",,,48500 nM
Cc1cnc(Nc2ccc(C3CCN(C)CC3)c(F)c2)nc1Nc1ccc(Cl)c(NS(=O)(=O)C(C)(C)C)c1,"ULK1 (Homo sapiens, UniProt O75385)","enzyme activity, inhibitor",,,1050 nM
CC(C)NCc1ccc(C[C@@H]2NC(=O)[C@@H](Cc3c[nH]c4ccccc34)NC(=O)[C@H](Cc3ccccc3)NC(=O)[C@@H](NC(=O)[C@H](N)Cc3ccccc3)CSSC[C@@H](C(=O)N[C@H](C(N)=O)[C@@H](C)O)NC(=O)[C@H](Cc3ccc(O)c(I)c3)NC2=O)cc1,"SSTR1 (Homo sapiens, UniProt P30872)","ligand displacement, radioligand",,cell membranes,565 nM
CCC(NC(=O)C(CC(C)C)NC(=O)CCc1ccccc1)C(=O)C(=O)NCc1cccc(OC)c1 (centres unmarked),"Calpain-2 catalytic subunit (Capn2, Mus musculus, UniProt O08529)","enzyme activity, inhibitor",mouse pons-cerebellum membranes,together with: calcium 2 mM,85 nM
O=C([O][Ti+2][O]C(=O)c1ccc([P+]([Au-][Cl])(c2ccccc2)c2ccccc2)cc1)c1ccc([P+]([Au-][Cl])(c2ccccc2)c2ccccc2)cc1.c1cc[cH-]c1.c1cc[cH-]c1,"MAPKAPK3 (Homo sapiens, UniProt Q16644)","enzyme activity, inhibitor, radiometric",,,117 nM
NC(=O)[C@@H]1CCCNC(=O)[C@H](Cc2ccc([N+](=O)[O-])cc2)NC(=O)[C@H](Cc2ccccc2)NC(=O)[C@H](C(c2ccccc2)c2ccccc2)NC(=O)/C=C/C(=O)N1,SRC SH3-SH2-kinase domain,"enzyme activity, inhibitor, Z'-LYTE FRET",,"Src residues 83-533, together with: 50 µM ATP",1300 ± 200 nM
C/C=C/C(=O)Nc1ccc2nc(NCCCCCN(C)C)nc(NCCCCCCN(C)C)c2c1,"Histone lysine demethylase PHF8, PHD (PHF8, Homo sapiens, UniProt Q9UPP1)","enzyme activity, inhibitor, TR-FRET",,,> 100000 nM

# For quick reference, copied from above:
SMILES,target,test,system,setting,IC50
CC(C)NCc1ccc(C[C@@H]2NC(=O)[C@@H](Cc3c[nH]c4ccccc34)NC(=O)[C@H](Cc3ccccc3)NC(=O)[C@@H](NC(=O)[C@H](N)Cc3ccccc3)CSSC[C@@H](C(=O)N[C@H](C(N)=O)[C@@H](C)O)NC(=O)[C@H](Cc3ccc(O)c(I)c3)NC2=O)cc1,"SSTR1 (Homo sapiens, UniProt P30872)","ligand displacement, radioligand",,cell membranes,565 nM
NC(=O)[C@@H]1CCCNC(=O)[C@H](Cc2ccc([N+](=O)[O-])cc2)NC(=O)[C@H](Cc2ccccc2)NC(=O)[C@H](C(c2ccccc2)c2ccccc2)NC(=O)/C=C/C(=O)N1,SRC SH3-SH2-kinase domain,"enzyme activity, inhibitor, Z'-LYTE FRET",,"Src residues 83-533, together with: 50 µM ATP",1300 ± 200 nM
CN1C(=O)/C=C/C(=O)N[C@H](C(=O)O)CCCNC(=O)[C@H](Cc2ccc([N+](=O)[O-])cc2)NC(=O)[C@H](Cc2ccc(F)cc2)NC(=O)[C@@H]1CC1CCCCC1,SRC SH3-SH2-kinase domain,"enzyme activity, inhibitor, Z'-LYTE FRET",,"Src residues 83-533, together with: 50 µM ATP",570 ± 20 nM
O=C1C(=NN=c2[nH]ccs2)c2cc(Cl)ccc2N1CCn1ncc2c(=O)[nH]cnc21,"Cyclin-dependent kinase 6, with cyclin D3 (CDK6, Homo sapiens, UniProt Q00534)","enzyme activity, inhibitor, ADP detection",,,123 nM
CC1=CC(C)=[N+]2C1=C(CCCC(=O)NCCCCCC(=O)NCCCC[C@H](NC(=O)N[C@@H](CCC(=O)O)C(=O)O)C(=O)O)c1c(C)cc(C)n1[B-]2(F)F,"FOLH1 (Homo sapiens, UniProt Q04609)","ligand displacement in cells, radioligand",,,21.5 nM
